{"data": "Experimental data collected from several papers", "note": "Each line is one published result; not all experiments were run side by side. ± marks the error that the study gave."}
{"SMILES": "C[C@@H](N)C1CCN(S(=O)(=O)c2cccc3cnccc23)CC1", "system": "healthy volunteers, fasted, plasma", "conditions": "oral, 150 mg", "measurement": "CL/F", "value": "4820 L/h"}
{"SMILES": "CO[C@H]1CC[C@H](N2C(=O)CNc3ncc(-c4ccc(C(C)(C)O)nc4)nc32)CC1", "system": "patients, plasma", "conditions": "60 mg, day -1, geometric mean", "measurement": "CL/F", "value": "28.9 L/h"}
{"SMILES": "O=C(c1cccnc1-c1ccncc1)N1CCC(O)(Cc2ccccc2)CC1", "system": "healthy Japanese adults, plasma", "conditions": "600 mg single dose", "measurement": "CL/F", "value": "178 L/h"}
{"SMILES": "OC[C@H]1O[C@@H](c2ccc(F)c(Cc3cc4ccccc4s3)c2)[C@H](O)[C@@H](O)[C@@H]1O", "system": "Japanese type 2 diabetes patients", "conditions": "oral, 25 mg/day, day 14", "measurement": "CL/F", "value": "10.3 ± 2 L/h"}
{"SMILES": "O=C(Nc1cnccc1Cl)N1CCN(Cc2ccc3c(c2)OC(F)(F)O3)CC1", "system": "healthy young men, plasma", "conditions": "oral, 25 mg once daily, day 10", "measurement": "CL/F", "value": "12.5 L/h"}
{"SMILES": "CCCCCCCCCCCCCCCC(=O)N[C@@H](CCC(=O)NCCCC[C@@H]1NC(=O)[C@H]([C@@H](C)CC)NC(=O)[C@@H](NC(=O)[C@@H]2CCCN2C(=O)[C@H](Cc2ccccc2)NC(=O)[C@H](Cc2c[nH]cn2)NC(=O)[C@@H](NC(=O)[C@H](CC(=O)O)NC(=O)CC(C)C)[C@@H](C)O)CSSC[C@@H](C(=O)N[C@@H](CCCCN)C(N)=O)NC(=O)CNC(=O)[C@H](CCCCN)NC(=O)[C@H](CO)NC(=O)[C@H](CCCNC(=N)N)NC(=O)[C@@H]2CCCN2C(=O)[C@H](CCC(=O)O)NC(=O)[C@H](Cc2ccccc2)NC1=O)C(=O)O", "system": "healthy volunteers, plasma", "conditions": "subcutaneous, 10 mg single, lyophilised formulation", "measurement": "CL/F", "value": "0.629 ± 0.123 L/h"}
{"SMILES": "N#CC[C@H](C1CCCC1)n1cc(-c2ncnc3[nH]ccc23)cn1", "system": "children over 12 years, plasma", "conditions": "oral, BSA-corrected", "measurement": "CL/F", "value": "10.2 ± 3.1 L/h/m²"}
{"SMILES": "CC[C@@H]1CN(C(=O)NCC(F)(F)F)C[C@@H]1c1cnc2cnc3[nH]ccc3n12", "assay": "population PK model", "system": "healthy, RA and CD subjects, plasma", "conditions": "oral, immediate-release formulation", "how to read": "baseline: females over males", "measurement": "CL/F ratio", "value": 0.85}
{"note": "Excerpt of the above:"}
{"SMILES": "OC[C@H]1O[C@@H](c2ccc(F)c(Cc3cc4ccccc4s3)c2)[C@H](O)[C@@H](O)[C@@H]1O", "system": "Japanese type 2 diabetes patients", "conditions": "oral, 25 mg/day, day 14", "measurement": "CL/F", "value": "10.3 ± 2 L/h"}
